Measured values collected from several papers.
Protocols differ between the studies behind these lines. Several values in a cell are separate wells, animals, samples, runs or records. ± gives the spread as reported.

For `Cc1cc(/C=C/C#N)cc(C)c1Nc1ccnc(Nc2ccc(C#N)cc2)n1`, the EC50 was 0.2 nM (HIV-1; viral replication, single-round infection; RT mutant P236L).
The responding donors of `YADSFVIRGDEVRQI` is reported as 8% (human CD4 T cells; AIM; peptide).
`CN1CCCC2(C1)CN(Cc1cccnc1)c1ccc(C(=O)NCC3CCCCC3)cc12` (stereo not drawn) has a maximum response of 97.4% (SARS-CoV-2; cytopathic effect; USA_WA1/2020; retest, 8-point, duplicates).
With `Nc1cc(N2CCCC(C(=O)c3ccc(Oc4ccccc4)cc3)C2)ncn1` (stereo not drawn) the remaining activity was 47% (Lassa mammarenavirus; viral replication; Huh-7; 10 µM, 72 h).
`CCOP(=S)(OCC)Oc1nc(Cl)c(Cl)cc1Cl` gave a Vmax of 0.27 ± 0.09 nmol/min/mg protein (rat CYP1A; ethoxyresorufin O-deethylation; liver microsomes; concentration not given).
With `COCCCNC(=O)C1CCN(Cc2cc3ccccc3n2Cc2cccc(Cl)c2)CC1` the efficacy was 0% (SARS-CoV-2; cytopathic effect; USA_WA1/2020; retest, 8-point, duplicates).
With `Cc1cc(/C=C/C#N)cc(C)c1Nc1nc(Nc2ccc3cc(C#N)ccc3c2)ncc1N` the EC50 was greater than 7 nM (HIV-1; viral replication, single-round infection; RT mutant K101E/M184I).
`LGVYYHKNNKSWMES` has a responding donors of 9% (human CD4 T cells; AIM; peptide).
With `Cc1nc2n(n1)CC(=O)N[C@@H](C(C)C)CN(C(=O)CCC1(C)CC1)CC(=O)N[C@@H](CC(C)C)c1nc(cs1)C(=O)N[C@H]2Cc1ccccc1` the remaining activity was 82% (Lassa mammarenavirus; viral replication; Huh-7; 10 µM, 72 h).
For `GKGQQQQGQTVTKKS`, the responding donors was 7% (human CD4 T cells; AIM; peptide).
The remaining activity of `Cc1ccc(CN2CCN(c3ncnc4ccccc34)CC2)o1` is reported as 52% (Lassa mammarenavirus; viral replication; Huh-7; 10 µM, 72 h).
Under “frequency of responding donors”, `FPQSAPHGV` is recorded as 40 (AIM; peptide, CD8+ T cells from PBMC, human donors; HLA-B*07:02 restricted, unit not given; relative to: positive over tested donors).
For `Oc1ccccc1-c1nc(-c2cccs2)c(-c2cccs2)[nH]1`, the maximum response was 48% (SARS-CoV-2; cytopathic effect; USA_WA1/2020; round 1, 5-point).
`CCc1ccc(CN(C)Cc2c[nH]nc2-c2ccc(OC)cc2OC)cc1` has a remaining activity of 53% (Lassa mammarenavirus; viral replication; Huh-7; 10 µM, 72 h).
With `O=C1Nc2ccc(Cl)cc2[C@@](C#CC2CC2)(C(F)(F)F)O1` the EC50 was 3.4 ± 0.3 nM (HIV-1; viral replication, single-round infection; RT mutant V106A/F227L/L234I).
`NRNRFLYIIKLIFLW` has a responding donors of 13% (human CD4 T cells; AIM; peptide).
For `NC(=O)CCNC(=O)c1ccccc1S`, the EC50 was 3280 ± 1470 nM (HIV-1; viral replication; human PBMC, subtype E CMU02, CCR5-tropic clinical isolate).
`TDEMIAQYTSALLAG` has a responding donors of 9% (human CD4 T cells; AIM; peptide).
`COP(=O)(OC)OC=C(Cl)Cl` has a Vmax of 0.24 ± 0.06 nmol/min/mg protein (rat CYP1A; ethoxyresorufin O-deethylation; liver microsomes; concentration not given).
For `FDEDDSEPVL`, “frequency of responding donors” read 40 (AIM; peptide, CD8+ T cells from PBMC, human donors; HLA-B*40:01 restricted, unit not given; relative to: positive over tested donors).
For `NC(=O)C[C@H](NC(=O)Cc1ccc(O)cc1O)C(=O)NCCCCCNCCCNCCCNC(=O)[C@@H](N)CCCN=C(N)N`, the inhibition was less than 20% (rat GluN1/GluN2A, GluN1 M2-loop Ala mutants; steady-state current, channel blocker, two-electrode voltage clamp; Xenopus oocytes; 100 nM, holding potential -60 mV).
The AC50 of `CCOc1ccccc1CNCc1cccn1-c1nnc(N2CCN(c3ccccc3)CC2)s1` is reported as 3160 nM (SARS-CoV-2; cytopathic effect, cell-based CPE; USA_WA1/2020; round 1, 5-point dilution).
`Cc1cc(/C=C/C#N)cc(C)c1-n1cnc2cnc(Nc3ccc4cc(C#N)ccc4c3)nc21` has an EC50 of 15.1 ± 1 nM (HIV-1; viral replication, single-round infection; RT mutant V106A).
With `CSc1ccc2c(c1)C(N1CCN(C)CC1)Cc1ccccc1S2.O=C(O)/C=C\C(=O)O` (stereo not drawn) the maximal inhibition was 99% (HeLa; Ebola VLP entry).
`Cc1cc(/C=C/C#N)cc(C)c1Nc1nc(Nc2ccc(/C=C/C#N)cc2)ncc1N` gave an EC50 of 0.6 ± 0.1 nM (HIV-1; viral replication, single-round infection; RT mutant P236L).
The inhibition of `CC(C)=CCc1cc(-c2coc3cc(O)cc(O)c3c2=O)cc(O)c1O` is reported as greater than 90% (viral replication; SARS-CoV-2 trVLP system; 100 µM).
`Cc1nc2n(n1)CC(=O)N[C@@H](C(C)C)CN(C(=O)c1ccc3[nH]ccc3c1)CC(=O)N[C@@H](CC(C)C)c1nc(cs1)C(=O)N[C@H]2Cc1ccccc1` gave a remaining activity of 112% (Lassa mammarenavirus; viral replication; Huh-7; 10 µM, 72 h).
`Cc1ccc(Nc2ccnc(N3CCC(C(=O)NCCCc4ccccc4)CC3)n2)cc1` gave an efficacy of 54% (SARS-CoV-2; cytopathic effect; USA_WA1/2020; round 2, 5-point).
`COc1ccc2cc1OCCN(Cc1cc(CN3CCCCC3)cs1)CC(=O)N[C@H](C(C)C)C(=O)NCCn1ccnc1-2` has an Emax of 9.76% (Lassa mammarenavirus; viral replication; Huh-7; concentration not given).
`Cc1cn([C@H]2C[C@H](N=[N+]=[N-])[C@@H](CO)O2)c(=O)[nH]c1=O` gave an EC50 of 0.8 nM (HIV-1; viral replication; human monocytes/macrophages, subtype B BaL, CCR5-tropic).
With `CCc1c(C(=O)C(N)=O)c2c(OCC(=O)O)cccc2n1Cc1ccccc1` the viability difference was 9.21% (C2C12; 1 µM, together with: WB venom; relative to: venom alone).
For `Cc1nc2n(n1)CC(=O)N[C@@H](C(C)C)CN(Cc1ccccn1)CC(=O)N[C@@H](CC(C)C)c1nc(cs1)C(=O)N[C@H]2Cc1ccccc1`, the remaining activity was 90% (Lassa mammarenavirus; viral replication; Huh-7; 10 µM, 72 h).
The AC50 of `COc1ccc(-c2cn3c(n2)sc2cc(C(=O)NCCCN4CCCCCC4)ccc23)cc1` is reported as 14100 nM (SARS-CoV-2; cytopathic effect, cell-based CPE; USA_WA1/2020; round 2, 5-point dilution).
For `Nc1ncccc1CN1CCCC(C(=O)c2cccc3ccccc23)C1` (stereo not drawn), the remaining activity was 55% (Lassa mammarenavirus; viral replication; Huh-7; 10 µM, 72 h).
With `N#CC(C#N)=NNc1cccc(Cl)c1` the fold enhancement was 1 fold (Escherichia coli; tetracycline MIC, checkerboard; tetracycline-resistant (pBR322); 1 µM, together with: tetracycline; relative to: MIC alone over combination).
`CC1CCN(CCCNC(=O)c2cc(Sc3ccc(F)cc3)nc3ccccc23)CC1` has a maximal response of 92.8% (SARS-CoV-2; cytopathic effect, cell-based CPE; USA_WA1/2020; round 2, 5-point dilution).
`CNC(=O)[C@@H](NC(=O)[C@H](CC(C)C)[C@H](O)C(=O)NO)C(C)(C)C` gave a remaining activity of 98% and 96.3% and 93% (Daboia russelii venom proteases (SVMP); protease activity, inhibitor; KA population; 0.001 µM, together with: azocasein substrate; relative to: venom alone).
For `Nc1ncnc2c([C@@H]3N[C@H](CO)[C@@H](O)[C@H]3O)c[nH]c12`, the infected cells was 0.8% (Marburg virus; viral replication, antibody staining; HeLa, Musoke; 25 µM, 1 h).
`Cn1c(Cn2ccc(C(F)(F)F)c(Oc3cc(Cl)cc(C#N)c3)c2=O)n[nH]c1=O` gave an EC50 of 46 ± 14 nM (HIV-1; viral replication, single-round infection; RT mutant D67E).
`Cc1ccc(Cl)cc1N1CCN(CCCNc2ncnc3onc(-c4ccc(F)cc4)c23)CC1` has an efficacy of 72.1% (SARS-CoV-2; cytopathic effect; USA_WA1/2020; round 1, 5-point).
For `HCANFNVLFSTVFPP`, the responding donors was 7% (human CD4 T cells; AIM; peptide).
`Nc1nc(N)c2ncn([C@H]3C[C@H](O)[C@](CO)(CF)O3)c2n1` has an IC50 of 2.7 ± 0.5 nM (HIV-1 K65R; MTT; MT4).

A few entries again:
For `Oc1ccccc1-c1nc(-c2cccs2)c(-c2cccs2)[nH]1`, the maximum response was 48% (SARS-CoV-2; cytopathic effect; USA_WA1/2020; round 1, 5-point).
`CCOP(=S)(OCC)Oc1nc(Cl)c(Cl)cc1Cl` gave a Vmax of 0.27 ± 0.09 nmol/min/mg protein (rat CYP1A; ethoxyresorufin O-deethylation; liver microsomes; concentration not given).
`Cc1ccc(Nc2ccnc(N3CCC(C(=O)NCCCc4ccccc4)CC3)n2)cc1` gave an efficacy of 54% (SARS-CoV-2; cytopathic effect; USA_WA1/2020; round 2, 5-point).
With `O=C1Nc2ccc(Cl)cc2[C@@](C#CC2CC2)(C(F)(F)F)O1` the EC50 was 3.4 ± 0.3 nM (HIV-1; viral replication, single-round infection; RT mutant V106A/F227L/L234I).
`LGVYYHKNNKSWMES` has a responding donors of 9% (human CD4 T cells; AIM; peptide).
With `Cc1cc(/C=C/C#N)cc(C)c1Nc1nc(Nc2ccc3cc(C#N)ccc3c2)ncc1N` the EC50 was greater than 7 nM (HIV-1; viral replication, single-round infection; RT mutant K101E/M184I).
For `Nc1ncnc2c([C@@H]3N[C@H](CO)[C@@H](O)[C@H]3O)c[nH]c12`, the infected cells was 0.8% (Marburg virus; viral replication, antibody staining; HeLa, Musoke; 25 µM, 1 h).
